Assay results collected from several papers.
Every numbered part comes from another study and shows a few of its results, in no order. Values joined by “and” are separate records of one study, mostly repeats; a detail may differ. ± gives the spread as reported.
Chain of UniProt Q9Y6M4 (whole entry, looked up): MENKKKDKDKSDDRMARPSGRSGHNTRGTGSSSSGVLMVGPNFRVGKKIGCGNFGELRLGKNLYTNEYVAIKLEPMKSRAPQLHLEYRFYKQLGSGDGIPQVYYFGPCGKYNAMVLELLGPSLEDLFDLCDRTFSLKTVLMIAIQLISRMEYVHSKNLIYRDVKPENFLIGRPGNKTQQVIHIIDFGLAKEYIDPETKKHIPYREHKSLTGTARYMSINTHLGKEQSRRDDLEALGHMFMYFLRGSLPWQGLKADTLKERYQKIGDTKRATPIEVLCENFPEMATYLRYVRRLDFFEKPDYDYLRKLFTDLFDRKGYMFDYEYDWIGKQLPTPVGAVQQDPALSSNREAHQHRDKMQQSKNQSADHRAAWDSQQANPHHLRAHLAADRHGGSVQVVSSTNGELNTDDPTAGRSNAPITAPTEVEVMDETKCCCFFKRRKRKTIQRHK
Chain of UniProt Q8NG66 (whole entry, looked up): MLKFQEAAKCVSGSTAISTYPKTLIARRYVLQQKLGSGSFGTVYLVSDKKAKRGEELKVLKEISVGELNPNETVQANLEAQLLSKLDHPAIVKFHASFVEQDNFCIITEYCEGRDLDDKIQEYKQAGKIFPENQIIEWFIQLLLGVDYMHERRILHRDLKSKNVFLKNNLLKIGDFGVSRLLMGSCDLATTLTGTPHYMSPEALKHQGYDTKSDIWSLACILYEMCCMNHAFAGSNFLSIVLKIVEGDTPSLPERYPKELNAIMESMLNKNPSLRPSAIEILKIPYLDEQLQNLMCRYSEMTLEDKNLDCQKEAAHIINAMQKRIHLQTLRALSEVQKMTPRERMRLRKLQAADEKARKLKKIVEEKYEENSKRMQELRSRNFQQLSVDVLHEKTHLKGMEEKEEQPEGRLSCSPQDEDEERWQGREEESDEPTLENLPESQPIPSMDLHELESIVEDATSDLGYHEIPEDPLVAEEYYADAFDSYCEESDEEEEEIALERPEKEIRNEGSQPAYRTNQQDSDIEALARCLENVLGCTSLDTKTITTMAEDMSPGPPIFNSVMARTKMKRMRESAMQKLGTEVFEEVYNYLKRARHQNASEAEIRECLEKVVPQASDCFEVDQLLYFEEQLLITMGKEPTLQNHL
Chain of UniProt O76039 (whole entry, looked up): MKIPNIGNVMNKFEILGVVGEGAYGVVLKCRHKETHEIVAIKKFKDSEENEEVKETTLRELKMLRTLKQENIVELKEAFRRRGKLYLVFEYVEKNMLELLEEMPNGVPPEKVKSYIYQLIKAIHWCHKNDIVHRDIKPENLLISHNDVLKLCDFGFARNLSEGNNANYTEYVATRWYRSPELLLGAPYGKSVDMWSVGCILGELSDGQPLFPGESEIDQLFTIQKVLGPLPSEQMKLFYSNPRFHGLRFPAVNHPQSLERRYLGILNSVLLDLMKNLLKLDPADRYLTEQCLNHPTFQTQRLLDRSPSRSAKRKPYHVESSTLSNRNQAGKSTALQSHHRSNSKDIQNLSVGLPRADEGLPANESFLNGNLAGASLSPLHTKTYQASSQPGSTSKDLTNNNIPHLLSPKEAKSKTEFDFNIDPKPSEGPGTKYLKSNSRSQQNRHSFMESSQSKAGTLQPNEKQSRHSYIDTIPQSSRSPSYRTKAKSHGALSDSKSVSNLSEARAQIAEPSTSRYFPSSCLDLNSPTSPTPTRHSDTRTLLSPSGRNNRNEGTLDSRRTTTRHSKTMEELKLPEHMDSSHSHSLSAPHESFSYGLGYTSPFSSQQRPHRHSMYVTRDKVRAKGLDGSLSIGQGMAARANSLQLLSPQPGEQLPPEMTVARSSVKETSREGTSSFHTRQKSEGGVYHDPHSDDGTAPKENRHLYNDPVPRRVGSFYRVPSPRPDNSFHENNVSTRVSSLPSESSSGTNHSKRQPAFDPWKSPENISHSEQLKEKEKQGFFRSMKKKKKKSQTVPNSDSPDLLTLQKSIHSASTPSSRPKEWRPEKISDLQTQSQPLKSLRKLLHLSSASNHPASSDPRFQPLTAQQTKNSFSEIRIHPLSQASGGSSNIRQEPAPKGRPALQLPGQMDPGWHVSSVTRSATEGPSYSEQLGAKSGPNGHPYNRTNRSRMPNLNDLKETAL
Chain of UniProt P10721 (whole entry, looked up): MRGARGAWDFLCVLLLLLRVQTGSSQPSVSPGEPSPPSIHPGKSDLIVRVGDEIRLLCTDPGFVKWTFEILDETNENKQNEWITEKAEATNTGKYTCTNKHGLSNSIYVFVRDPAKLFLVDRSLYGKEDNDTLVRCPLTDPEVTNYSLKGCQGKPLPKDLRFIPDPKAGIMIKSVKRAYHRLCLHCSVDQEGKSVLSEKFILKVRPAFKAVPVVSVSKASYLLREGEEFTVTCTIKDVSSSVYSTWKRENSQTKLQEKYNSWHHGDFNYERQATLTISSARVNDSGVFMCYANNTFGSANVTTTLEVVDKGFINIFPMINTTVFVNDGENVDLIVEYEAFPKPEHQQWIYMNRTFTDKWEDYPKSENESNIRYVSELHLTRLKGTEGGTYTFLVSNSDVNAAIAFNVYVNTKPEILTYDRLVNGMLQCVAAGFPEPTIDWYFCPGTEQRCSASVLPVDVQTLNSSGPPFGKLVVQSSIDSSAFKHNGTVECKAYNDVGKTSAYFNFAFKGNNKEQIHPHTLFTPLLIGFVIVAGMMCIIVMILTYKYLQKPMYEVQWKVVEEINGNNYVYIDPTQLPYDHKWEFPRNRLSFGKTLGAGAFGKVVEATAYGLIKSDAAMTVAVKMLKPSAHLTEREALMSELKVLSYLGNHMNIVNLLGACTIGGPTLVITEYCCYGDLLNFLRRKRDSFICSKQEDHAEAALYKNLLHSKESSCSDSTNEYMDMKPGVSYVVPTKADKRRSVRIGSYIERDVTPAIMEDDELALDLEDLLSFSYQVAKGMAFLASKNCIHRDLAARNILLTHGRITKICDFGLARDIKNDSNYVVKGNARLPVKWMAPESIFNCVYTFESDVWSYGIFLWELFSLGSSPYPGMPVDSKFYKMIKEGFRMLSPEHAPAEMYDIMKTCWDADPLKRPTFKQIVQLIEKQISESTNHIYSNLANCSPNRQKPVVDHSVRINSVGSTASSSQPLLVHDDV
Chain of UniProt P0C264 (whole entry, looked up): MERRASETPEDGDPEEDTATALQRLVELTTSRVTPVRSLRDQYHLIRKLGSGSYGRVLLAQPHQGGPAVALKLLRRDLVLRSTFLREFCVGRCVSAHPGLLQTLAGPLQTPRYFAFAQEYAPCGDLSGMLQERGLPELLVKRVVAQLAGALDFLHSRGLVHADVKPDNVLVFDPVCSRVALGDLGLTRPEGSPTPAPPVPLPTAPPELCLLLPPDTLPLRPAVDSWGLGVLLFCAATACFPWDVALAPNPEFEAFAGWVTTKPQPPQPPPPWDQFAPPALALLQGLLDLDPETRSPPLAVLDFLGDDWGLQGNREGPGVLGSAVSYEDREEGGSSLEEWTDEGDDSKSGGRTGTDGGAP

Block 1
SMILES: Cc1noc([C@H]2C[C@@H](c3ccc(C(F)(F)F)cc3)CN(C(=O)N3CCS(=O)(=O)C3)C2)n1
Method: competition with immobilised ligand
Tested at: 1 µM
Measurement: remaining binding
NEK11 (Homo sapiens, UniProt Q8NG66); cell-free assay: 100%
NUAK1 (Homo sapiens, UniProt O60285); cell-free assay: 100%
CDKL5 (Homo sapiens, UniProt O76039); binding: 100%
CSNK1G3 (Homo sapiens, UniProt Q9Y6M4); cell-free assay: 100%
Mast/stem cell growth factor receptor Kit, autoinhibited (KIT, Homo sapiens, UniProt P10721); cell-free assay: 84%
SBK3 (Homo sapiens, UniProt P0C264); cell-free assay: 84%
CAMK1G (Homo sapiens, UniProt Q96NX5); cell-free assay: 100%

Block 2
Target: ALK tyrosine kinase receptor (ALK, Homo sapiens, UniProt Q9UM73)
Chain of UniProt Q9UM73 (whole entry, looked up): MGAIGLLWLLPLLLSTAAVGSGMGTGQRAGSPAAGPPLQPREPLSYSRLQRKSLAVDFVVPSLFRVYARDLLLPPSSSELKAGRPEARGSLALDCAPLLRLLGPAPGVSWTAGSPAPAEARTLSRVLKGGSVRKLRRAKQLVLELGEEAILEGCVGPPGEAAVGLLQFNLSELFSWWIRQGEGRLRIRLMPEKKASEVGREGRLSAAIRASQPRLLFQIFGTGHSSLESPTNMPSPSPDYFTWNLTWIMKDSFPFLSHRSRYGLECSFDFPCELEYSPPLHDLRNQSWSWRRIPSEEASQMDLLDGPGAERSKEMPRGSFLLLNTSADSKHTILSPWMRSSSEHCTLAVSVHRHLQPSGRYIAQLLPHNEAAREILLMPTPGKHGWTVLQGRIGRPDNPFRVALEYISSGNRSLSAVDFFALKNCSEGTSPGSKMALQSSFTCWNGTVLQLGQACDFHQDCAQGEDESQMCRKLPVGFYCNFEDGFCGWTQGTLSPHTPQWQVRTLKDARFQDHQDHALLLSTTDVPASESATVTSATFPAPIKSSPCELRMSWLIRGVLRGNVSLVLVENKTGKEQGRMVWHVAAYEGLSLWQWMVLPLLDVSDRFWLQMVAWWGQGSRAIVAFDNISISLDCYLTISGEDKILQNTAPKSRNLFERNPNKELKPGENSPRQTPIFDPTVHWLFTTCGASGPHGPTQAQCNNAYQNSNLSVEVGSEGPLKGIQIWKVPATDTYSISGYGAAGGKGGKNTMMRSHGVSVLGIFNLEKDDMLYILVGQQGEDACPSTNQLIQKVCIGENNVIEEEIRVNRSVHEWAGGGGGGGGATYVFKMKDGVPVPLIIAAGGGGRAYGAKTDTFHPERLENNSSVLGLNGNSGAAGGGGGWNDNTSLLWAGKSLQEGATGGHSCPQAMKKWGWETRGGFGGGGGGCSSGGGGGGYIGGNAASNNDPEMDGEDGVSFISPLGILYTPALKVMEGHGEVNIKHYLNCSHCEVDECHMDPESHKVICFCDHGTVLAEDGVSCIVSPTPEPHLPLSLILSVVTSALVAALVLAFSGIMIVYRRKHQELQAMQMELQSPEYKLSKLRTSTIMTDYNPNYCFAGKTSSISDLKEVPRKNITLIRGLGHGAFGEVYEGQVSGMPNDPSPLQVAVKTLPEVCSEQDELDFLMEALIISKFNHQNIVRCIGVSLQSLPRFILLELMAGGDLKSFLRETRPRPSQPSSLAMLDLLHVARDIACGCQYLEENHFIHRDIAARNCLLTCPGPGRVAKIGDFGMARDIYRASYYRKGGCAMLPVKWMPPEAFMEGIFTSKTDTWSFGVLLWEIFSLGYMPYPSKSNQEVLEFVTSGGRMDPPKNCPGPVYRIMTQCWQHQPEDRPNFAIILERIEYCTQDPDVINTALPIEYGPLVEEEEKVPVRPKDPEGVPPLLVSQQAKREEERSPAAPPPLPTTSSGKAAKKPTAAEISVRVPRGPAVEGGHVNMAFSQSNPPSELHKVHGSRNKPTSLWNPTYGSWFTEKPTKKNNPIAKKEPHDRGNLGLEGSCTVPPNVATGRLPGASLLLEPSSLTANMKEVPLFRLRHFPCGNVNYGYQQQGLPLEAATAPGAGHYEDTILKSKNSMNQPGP
Observed: enzyme activity
Action: inhibitor
Tested at: 0.5 µM
Reference: control
Measurement: remaining activity
Nc1ncnc2n[nH]c(Nc3ccc(F)cc3)c12: 88.9%
OCC(O)CCON=C1C(c2c(O)[nH]c3ccccc23)=Nc2ccccc21 (stereo not shown): 38.1%
O=C(CCCc1ccc(-c2ccccc2F)cc1)Nc1ccc(O)cc1: 97%
O=S(=O)(c1cccc2cnccc12)N1CCCNCC1: 120%
O=C1NC(=O)C(c2cn(CCCn3ccnc3)c3ccccc23)=C1Nc1ccccc1: 97.7%
Nc1ccc2ncnc(NCCc3ccc(Oc4ccccc4)cc3)c2c1: 108%
COc1cc2ncnc(Nc3ccc(Oc4ccccc4)cc3)c2cc1OC: 109%
COc1cc2nccc(Oc3ccc(NC(=S)NC(=O)c4ccccc4C)cc3)c2cc1OC: 80.8%
COc1ccc(OC)c2c(=S)c3ccccc3[nH]c12: 105%
O=c1c2ccccc2[nH]c(=S)n1CCN1CCC(=C(c2ccc(F)cc2)c2ccc(F)cc2)CC1: 104%
COc1ccc(CNC(=O)Nc2ncc([N+](=O)[O-])s2)cc1: 100%
Cn1c2ccccc2c2c3c(c4c5ccccc5n(CCC#N)c4c21)CNC3=O: 12.2%
NCCNc1ncc(C(N)=O)c(Nc2cccc(C(F)(F)F)c2)n1: 80.1%
CCOC(=O)c1c(C)[nH]c(/C=C2\C(=O)Nc3ccccc32)c1C: 79.2%

Block 3
Structure (SMILES): O=C(NC1CCNCC1)c1n[nH]cc1NC(=O)c1c(Cl)cccc1Cl
Method: trypan blue exclusion
Time: 48 h
Reference: untreated
Measurement: viability
HH; 0.001 µM: 104% and 103%
HuT78; 1 µM: 36.1%
HuT78; 0.001 µM: 104% and 102%
HH; 0.05 µM: 97.5% and 102%

Single results of other studies
OCCN1CCN(CCCN2c3ccccc3Sc3ccc(Cl)cc32)CC1  serum glucose (mouse, serum; dose not given): 164 ± 12.4 mg/dL
CN(C(=O)c1ccn2ncc(-c3ccc(C(N)=O)cc3)c2c1)c1ccc(C#N)cn1  oocyst shedding (Cryptosporidium parvum; faecal qPCR; IFN-γ knockout mouse; oral, 10 mg/kg; reference: vehicle): 3.95 log oocysts/g faeces and 3.84 log oocysts/g faeces and 4.3 log oocysts/g faeces
CCC(CC)[C@H](NC(C)=O)[C@@H]1[C@H](O)[C@@H](C(=O)O)C[C@H]1NC(=N)N  viability (A-375; 100 µM, 60 h): 104%

Some of these lines once more (block 3):
HH; 0.001 µM: 104% and 103%
HuT78; 0.001 µM: 104% and 102%
HH; 0.05 µM: 97.5% and 102%
